Measured values gathered from unrelated publications.
Protocols differ between the studies behind these lines. “And” joins repeats or separate records; there may be more than shown. ± marks the error that the study gave.

Compound	assay	system	conditions	scale	endpoint	value
CC(C)C[C@H](NC(=O)[C@@H](Cc1c[nH]c2ccccc12)NC(=O)[C@H](Cc1ccc(O)cc1)NC(=O)[C@H](CO)NC(=O)[C@H](Cc1c[nH]c2ccccc12)NC(=O)[C@H](Cc1c[nH]cn1)NC(=O)[C@@H]1CCC(=O)N1)C(=O)N[C@@H](CCCNC(=N)N)C(=O)N1CCC[C@H]1C(=O)NCC(N)=O	–	Chinese CPP boys	intramuscular, 22.5 mg, 12 months, day 1, month 6	–	patients, drug-related Obesity TEAEs	0%
CCCCc1oc2ccccc2c1C(=O)c1cc(I)c(OCCN(CC)CC)c(I)c1	–	male Hartley guinea pigs, anaesthetized	intravenous, 10 mg/kg over 10 min, after infusion	–	heart rate	200 ± 0.7 beats/min
O=C1CC[C@H](N2Cc3cc(N4CCN(CC5CCN(c6ccc([C@@H]7c8ccc(O)cc8CC[C@@H]7c7ccccc7)cc6)CC5)CC4)ccc3C2=O)C(=O)N1	rapid equilibrium dialysis	SD rat hepatocytes	2.5 µM, 6 h	–	recovery	109%
Cc1nc(-c2ccc(OCC(C)C)c(C#N)c2)sc1C(=O)O	–	healthy Chinese subjects	oral, 40 mg, fed	–	subjects with pyrexia	5%
Cc1c(-c2ccc(N3CCc4cccc(C(=O)Nc5nc6ccccc6s5)c4C3)nc2C(=O)O)cnn1CC12CC3(C)CC(C)(C1)CC(OCCNCC[C@H](O)CO)(C3)C2	–	anaesthetized male beagle dog	iv infusion, 0.01 mg/kg/min, 10 min	–	plasma concentration	6 ng/mL
CCc1cc(C(=O)NC)c2nccc(N3CCc4c(cc(Cn5ccnc5)cc4-c4cn(C)nc4C(F)(F)F)C3=O)c2c1	–	Sprague Dawley rats	oral, 50 mg/kg once daily, 7 days	–	serum albumin	32.4 ± 0.7 g/L
CC(C(=O)NCC(=O)NCC(CNC(=O)CNC(=O)C(C)N1CCN(CC(=O)[O-])CCN(CC(=O)[O-])CCN(CC(=O)[O-])CC1)(CNC(=O)CNC(=O)C(C)N1CCN(CC(=O)[O-])CCN(CC(=O)[O-])CCN(CC(=O)[O-])CC1)CNC(=O)CNC(=O)C(C)N1CCN(CC(=O)[O-])CCN(CC(=O)[O-])CCN(CC(=O)[O-])CC1)N1CCN(CC(=O)[O-])CCN(CC(=O)[O-])CCN(CC(=O)[O-])CC1.[Gd+3].[Gd+3].[Gd+3].[Gd+3] (centres unmarked)	ICP-MS	cynomolgus monkey	dose not given, 3 d, mass balance group	reference: dose	cumulative urinary excretion	99.9%
Cc1ccc([C@@H]2O[C@H](CO)[C@@H](O)[C@H](O)[C@H]2O)cc1Cc1ccc(-c2ccc(F)cc2)s1	–	Japanese type 2 diabetes patients	25 mg, day 18, 24 h urine collection	reference: baseline	urinary calcium excretion change	6.3 mg
C=CCN1CC(=O)N2[C@@H](Cc3ccc(O)cc3F)C(=O)N(Cc3cccc(N4CC(N5CCN(CC)CC5)C4)n3)C[C@@H]2N1C(=O)NCc1ccccc1	item: Malaise	advanced solid tumour patients	oral, 120 mg twice daily, expansion part, grade ≥3	–	treatment-related adverse events	0%
C[C@@H]1CN(c2c(F)c(N)c3c(=O)c(C(=O)O)cn(C4CC4)c3c2F)C[C@H](C)N1	–	male Hartley guinea pigs, anaesthetized	intravenous, 10 mg/kg over 10 min, after infusion	–	heart rate	201 ± 0.5 beats/min
O=C(O)CCC(=O)O.[2H]C([2H])([2H])Oc1cc(C)c2[nH]ccc2c1CN1CC[C@@H](C2CC2)C[C@H]1c1ccc(C(=O)O)cc1	multiple ascending dose	healthy Chinese subjects	100 mg twice daily	–	subjects with TEAE Acne	0%
CN(CCC(=O)O)C(=O)c1ccc2c(c1)CC[C@@H]1[C@@H]2CC[C@]2(C)C(c3cncc(F)c3)=CC[C@@H]12	–	premenopausal women with endometriosis pain, serum	60 mg twice daily, end of treatment, completers, mean	–	indirect bilirubin	0.62 mg/dL
CCN(Cc1ccccc1)Cc1ccc(CNC(=O)c2csc3nc[nH]c(=O)c23)cc1	haemolysis	human red blood cells	1 h, 37 °C	–	EC50	> 100 µM
C[C@@H](Nc1cc(F)cc(F)c1)c1cc(C(=O)N(C)C)cc2c(=O)cc(N3CCOCC3)oc12	–	human	oral, 120 mg twice daily, dose-expansion cohort, geometric LSM, with: abiraterone 1000 mg	–	AUC(tau)	4410 ng·h/mL
CC(C)NCC(O)COc1cccc2ccccc12 (centres unmarked)	–	male Hartley guinea pigs, anaesthetized	intravenous, 1 mg/kg over 10 min, after infusion	–	heart rate	188 ± 0.6 beats/min
O=C(O)c1cc(O)cc(O)c1	–	human CSF	concentration not given, mean	–	CSF concentration	not detected
COc1ccc(-n2nc(C(N)=O)c3c2C(=O)N(c2ccc(N4CCCCC4=O)cc2)CC3)cc1	–	human, plasma	oral, Final population PK model	–	ED50	27.6 ± 6.3 mg
CCN1CCN(Cc2ccc(NC(=O)c3ccc(C)c(NC(=O)c4cncc(-c5cccs5)c4)c3)cc2C(F)(F)F)CC1	LC-MS/MS	C57BL/6 mouse, plasma	intraperitoneal, 20 mg/kg single dose, 24 h	–	mean plasma concentration	6 ng/mL
Cc1ccc(C)c(OCCCC(C)(C)C(=O)O)c1	–	human, plasma	oral, dose not given, day 17 predose, median	–	trough plasma concentration	1420 ng/mL

Compound	assay	system	conditions	scale	endpoint	value
O=C(Nc1nc2cccc(-c3ccc(CN4CCS(=O)(=O)CC4)cc3)n2n1)C1CC1	item: cystitis	human rheumatoid arthritis patients	oral, 300 mg once daily, 4 weeks, regardless of relatedness	–	treatment-emergent adverse events	5%
[18F]c1ccc(-c2ccc3c(c2)[nH]c2ccncc23)cn1	ex vivo biodistribution	APP/PS1 mouse, AD model, kidneys	intravenous, 30 min	–	SUV	2.62 ± 1.93
CC(C)(C(=O)N1CCOc2c(C#N)cncc2C1)C(F)F	–	human, both sexes	oral, 40 mg single dose	–	subjects with keratitis TEAE	0%
CCOc1c([C@H](C)n2nc(C)c3c(N)ncnc32)cc(Cl)c(F)c1[C@@H]1CNC(=O)C1	ECG	previously treated B-cell malignancy patients	oral, 20 mg once daily, baseline below thresholds	–	observations with PR ≤200 ms	96%
COc1ccc(C2CC(=O)c3c(O)cc(OS(=O)(=O)O)cc3O2)cc1O (centres unmarked)	–	human CSF	concentration not given, mean	–	CSF concentration	not detected
CC[C@H](C)[C@H](NC(=O)[C@H](Cc1ccccc1)NC(=O)[C@H](CCC(=O)O)NC(=O)[C@H](CCCCNC(=O)COCCOCCNC(=O)COCCOCCNC(=O)CC[C@H](NC(=O)CCCCCCCCCCCCCCCCC(=O)O)C(=O)O)NC(=O)[C@H](C)NC(=O)[C@H](C)NC(=O)[C@H](CCC(N)=O)NC(=O)CNC(=O)[C@H](CCC(=O)O)NC(=O)[C@H](CC(C)C)NC(=O)[C@H](Cc1ccc(O)cc1)NC(=O)[C@H](CO)NC(=O)[C@H](CO)NC(=O)[C@@H](NC(=O)[C@H](CC(=O)O)NC(=O)[C@H](CO)NC(=O)[C@@H](NC(=O)[C@H](Cc1ccccc1)NC(=O)[C@@H](NC(=O)CNC(=O)[C@H](CCC(=O)O)NC(=O)C(C)(C)NC(=O)[C@@H](N)Cc1cnc[nH]1)[C@@H](C)O)[C@@H](C)O)C(C)C)C(=O)N[C@@H](C)C(=O)N[C@@H](Cc1c[nH]c2ccccc12)C(=O)N[C@@H](CC(C)C)C(=O)N[C@H](C(=O)N[C@@H](CCCNC(=N)N)C(=O)NCC(=O)N[C@@H](CCCNC(=N)N)C(=O)NCC(=O)O)C(C)C	12-lead Holter ECG	healthy humans	subcutaneous, 1.5 mg once weekly, 12 h, steady state	reference: placebo	QT change from baseline	-16.6 ms
OCCc1ccc(O)cc1	–	human CSF	concentration not given, mean	–	CSF concentration	not detected
CC(=O)N(C)[C@H]1CCN(C(=O)c2cnc3c(c2)C[C@](C)(c2ccc(F)cc2)N3)C1	item: Lightheadedness	human	oral, 15 mg once daily	–	adverse event duration	1 days
CCCOc1ccc(NC(=O)CN2CCN(C)CC2)cc1-c1nc(CC)c(CC)c(=O)[nH]1	–	healthy Chinese men	10 mg, with: alcohol 0.5 g/kg	–	hot flash incidence	13.3%
CO[C@@H]1[C@H](OC(=O)N2CC(CCN3CCOCC3)C2)CC[C@]2(CO2)[C@H]1[C@@]1(C)O[C@@H]1CC=C(C)C	–	humans	subcutaneous, 0.2 mg twice weekly for 4 weeks, day 28	reference: baseline	activated partial thromboplastin time	-1 ± 1.2 s
COc1cc(Nc2ncc3c(n2)-c2ccc(Cl)cc2C(c2c(F)cccc2OC)=NC3)ccc1C(=O)O	item: decreased platelet count, all grades	cancer patients, phase 1/2	oral, dose not given, with: pembrolizumab	–	patients with adverse event	21%
CN[C@H](CC(C)C)C(=O)N[C@H]1C(=O)N[C@@H](CC(N)=O)C(=O)N[C@H]2C(=O)N[C@H]3C(=O)N[C@H](C(=O)N[C@H](C(=O)O)c4cc(O)cc(O)c4-c4cc3ccc4O)[C@H](O)c3ccc(c(Cl)c3)Oc3cc2cc(c3O[C@@H]2O[C@H](CO)[C@@H](O)[C@H](O)[C@H]2O[C@H]2C[C@](C)(N)[C@H](O)[C@H](C)O2)Oc2ccc(cc2Cl)[C@H]1O	–	male C57BL/6J mouse, brain	intravenous bolus, 35 mg/kg	reference: thalamus over hippocampus	absorption rate ratio	> 3.5
COc1ncc(-c2nc3c(n2C(C)C)[C@H](c2ccc(Cl)cc2)N(c2cc(Cl)cn(C)c2=O)C3=O)c(OC)n1	–	human patients, plasma	oral, 200 mg, high-dose arm, cycle 1 day 1	–	median half-life	18.5 h
Cc1ccc(Sc2ccccc2N2CCNCC2)c(C)c1	item: eosinophil count increased	healthy adult women	oral, 5 mg daily, 12 days	–	participants with TEAE	0%
CCN1/C(=C/C(C)=O)Sc2ccc(F)cc21	–	cynomolgus monkey	oral, 30 mg/kg, 6 h post-dose	–	QTc interval (Bazett)	340 ± 20 ms
O=C(CCCN1CCC(O)(c2ccc(Cl)cc2)CC1)c1ccc(F)cc1	–	male Hartley guinea pigs, anaesthetized	intravenous, 0.1 mg/kg group, baseline before infusion	–	heart rate	231 ± 0.4 beats/min
CN(C(=O)n1cnc(-c2cccnc2)c1)[C@H]1CC[C@H](O)CC1	–	rat, cerebellum	oral, 10 mg/kg daily for 5 days, 48 h	–	tissue concentration	13.1 ± 1 ng/g
CNC(=O)c1ccc(-c2cnc3ncc(Cc4ccc5ncccc5c4)n3n2)cc1F	item: Pyrexia, all grades	gastric cancer patients	oral, 600 mg twice daily, expansion cohort, any causality	–	patients with adverse event	22%
Cn1cc(Nc2nccc(-c3ccc4c(c3)CN(C3COC3)CC[C@H]4NC(=O)c3cn(C(C)(C)C)nn3)n2)cn1	–	human, whole blood	50 mg twice daily, day 14	reference: pre-dose baseline	non-switched memory B cell change	-18.7%

Compound	assay	system	conditions	scale	endpoint	value
O=C1NCCc2nc(OCc3cccc(F)c3)ccc21	item: Piloerection	Sprague-Dawley rat, male	oral, 100 mg/kg, 1 h, score 0 none to 2 full	direction not given	Irwin test score	0
CCc1c(-c2ccccc2)c(-c2ccccc2)nn1-c1ccccc1-c1cccc(OCC(=O)O)c1	–	Sprague-Dawley rat	oral, dose not given	–	AUMC(0-inf) observed	17600 h²·ng/mL and 13700 h²·ng/mL and 17400 h²·ng/mL
CC(C)n1c(Nc2cccnc2)nc2cnc(Nc3ccc(N4CCN(C)CC4)cc3)nc21	–	healthy male humans	oral, dose not given, drug interaction study, all arms	–	incidence of AST increased TEAE	11.9%
O=C1c2ccncc2C(=O)c2c1[nH]c1ccccc21	–	Sprague-Dawley rat, female, lung	intravenous, 1 mg/kg, 24 h	–	tissue concentration	0.91 ± 1.47 nmol/mg
COc1cc2nccc(Oc3ccc(NC(=O)c4cc5c(n(-c6ccccc6)c4=O)CCCC5=O)nc3)c2cc1OC	–	patients with relapsed/refractory AML	oral, 3 mg once daily	–	TEAEs leading to interruption	40%
COc1cccc(-c2n[nH]c(SCc3ccccn3)n2)c1OC	–	Sprague-Dawley rats, female, plasma	intravenous, 1.0 mg/kg, single dose	–	Cmax	9840 ng/mL
O=C(Nc1cnccc1Cl)N1CCN(Cc2ccc3c(c2)OC(F)(F)O3)CC1	item: Haematoma	healthy elderly humans	100 mg once daily, 10 days	–	volunteers with adverse event	0%
O=C(N[C@H](Cc1c[nH]c2ccccc12)C(=O)Nc1ccncc1)c1ccc(-c2cc(C(F)(F)F)ccc2F)cc1F	–	Swiss Webster mouse, female, plasma	oral, 50 mg/kg, 8 h, 20% Kolliphor vehicle	–	concentration	5.6 µM
N#Cc1ccc2c(c1)[C@H]1CCCN(C(=O)c3ccc4[nH]cnc4c3)[C@H]1C2	–	human males	160 mg, end of trial	–	SHBG level	31.7 nmol/L
CO[C@H]1C[C@@H]2CC[C@@H](C)[C@@](O)(O2)C(=O)C(=O)N2CCCC[C@H]2C(=O)O[C@H]([C@H](C)C[C@@H]2CC[C@@H](OC(=O)NCCOCCOCCOCCOCCOCCOCCOCCOCCC(=O)N3CCc4cc(Cn5nc(-c6ccc7oc(N)nc7c6)c6c(N)ncnc65)ccc4C3)[C@H](OC)C2)C[C@@H](O)[C@H](C)/C=C(\C)[C@@H](O)[C@@H](OC)C(=O)[C@H](C)C[C@H](C)/C=C/C=C/C=C/1C	–	human, plasma	intravenous, 12 mg, cycle 1 day 1, arithmetic mean	–	AUC(0-t)	727 ng·h/mL
C[C@@H](N)C1CCN(S(=O)(=O)c2cccc3cnccc23)CC1	item: Bradycardia	healthy volunteers	150 mg, fed	–	TEAE incidence	0%
COc1cc(CC(=O)O)ccc1OS(=O)(=O)O	–	human CSF	concentration not given, mean	–	CSF concentration	not detected
C=CC(=O)Nc1cc(Nc2nccc(-c3cn(C)c4ccccc34)n2)c(OC)cc1N(C)CCN(C)C	storage stability	human plasma	5 h, on ice, medium QC level	–	recovery	91.2%
CN1C(=O)[C@@H](NC(=O)c2nnc(Cc3ccccc3)[nH]2)COc2cccnc21	phase I single ascending dose	human, male and female	oral, 30 mg, fasted	–	participants with any AE of special interest	0%
C=CCn1c(=O)c2cnc(Nc3ccc(N4CCN(C)CC4)cc3)nc2n1-c1cccc(C(C)(C)O)n1	–	human	oral, 175 mg twice daily, monotherapy lead-in, -5 days	geometric mean	AUC(0-t)	7.5 µM·h
C[C@@H]1OC(=O)[C@H](Cc2ccccc2)[C@H]1O	FOCUS PEARL groundwater modelling	soil	geometric mean input	–	KOC	86 mL/g
C=CC(=O)Nc1cc(Nc2nccc(-c3cn(C)c4ccccc34)n2)c(OCC(F)(F)F)nc1N(C)CCN(C)C	rapid equilibrium dialysis	human plasma	1 µg/mL, time not given	–	recovery	87.9%
CNC(=O)c1ccc(-c2cnc3ncc(Cc4ccc5ncccc5c4)n3n2)cc1F	–	Japanese patients	oral, 400 mg, grade 3/4	–	Urticaria treatment discontinuation	0%
